Published values of several laboratories.
Numbered parts are unrelated; each lists some results of a single study.
UniProt Q99558, sequence (whole entry, looked up): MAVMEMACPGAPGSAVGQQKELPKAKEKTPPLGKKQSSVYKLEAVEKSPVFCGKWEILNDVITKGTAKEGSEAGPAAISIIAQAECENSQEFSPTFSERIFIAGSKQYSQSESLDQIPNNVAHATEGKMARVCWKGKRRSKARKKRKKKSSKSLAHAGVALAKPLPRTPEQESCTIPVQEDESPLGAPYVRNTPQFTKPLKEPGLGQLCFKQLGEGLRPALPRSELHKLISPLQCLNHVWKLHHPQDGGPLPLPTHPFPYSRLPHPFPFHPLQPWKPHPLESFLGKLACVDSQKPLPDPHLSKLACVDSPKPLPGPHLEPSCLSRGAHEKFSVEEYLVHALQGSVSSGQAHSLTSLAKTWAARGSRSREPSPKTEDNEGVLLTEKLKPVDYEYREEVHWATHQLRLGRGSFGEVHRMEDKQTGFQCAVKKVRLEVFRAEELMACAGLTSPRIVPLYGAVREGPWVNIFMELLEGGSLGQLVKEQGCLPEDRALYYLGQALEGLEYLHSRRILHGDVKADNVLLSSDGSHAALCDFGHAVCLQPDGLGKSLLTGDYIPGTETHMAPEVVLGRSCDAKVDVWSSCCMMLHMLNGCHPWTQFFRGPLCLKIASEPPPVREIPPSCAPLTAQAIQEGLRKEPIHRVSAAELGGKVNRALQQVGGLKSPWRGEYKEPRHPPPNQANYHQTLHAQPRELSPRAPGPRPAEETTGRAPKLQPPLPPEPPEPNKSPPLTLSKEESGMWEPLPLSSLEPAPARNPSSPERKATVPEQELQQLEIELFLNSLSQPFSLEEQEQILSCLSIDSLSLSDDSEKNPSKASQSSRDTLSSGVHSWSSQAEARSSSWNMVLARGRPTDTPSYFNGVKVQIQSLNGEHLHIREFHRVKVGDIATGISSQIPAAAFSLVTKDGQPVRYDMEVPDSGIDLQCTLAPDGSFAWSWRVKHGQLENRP
UniProt Q8WXR4, sequence (whole entry, looked up): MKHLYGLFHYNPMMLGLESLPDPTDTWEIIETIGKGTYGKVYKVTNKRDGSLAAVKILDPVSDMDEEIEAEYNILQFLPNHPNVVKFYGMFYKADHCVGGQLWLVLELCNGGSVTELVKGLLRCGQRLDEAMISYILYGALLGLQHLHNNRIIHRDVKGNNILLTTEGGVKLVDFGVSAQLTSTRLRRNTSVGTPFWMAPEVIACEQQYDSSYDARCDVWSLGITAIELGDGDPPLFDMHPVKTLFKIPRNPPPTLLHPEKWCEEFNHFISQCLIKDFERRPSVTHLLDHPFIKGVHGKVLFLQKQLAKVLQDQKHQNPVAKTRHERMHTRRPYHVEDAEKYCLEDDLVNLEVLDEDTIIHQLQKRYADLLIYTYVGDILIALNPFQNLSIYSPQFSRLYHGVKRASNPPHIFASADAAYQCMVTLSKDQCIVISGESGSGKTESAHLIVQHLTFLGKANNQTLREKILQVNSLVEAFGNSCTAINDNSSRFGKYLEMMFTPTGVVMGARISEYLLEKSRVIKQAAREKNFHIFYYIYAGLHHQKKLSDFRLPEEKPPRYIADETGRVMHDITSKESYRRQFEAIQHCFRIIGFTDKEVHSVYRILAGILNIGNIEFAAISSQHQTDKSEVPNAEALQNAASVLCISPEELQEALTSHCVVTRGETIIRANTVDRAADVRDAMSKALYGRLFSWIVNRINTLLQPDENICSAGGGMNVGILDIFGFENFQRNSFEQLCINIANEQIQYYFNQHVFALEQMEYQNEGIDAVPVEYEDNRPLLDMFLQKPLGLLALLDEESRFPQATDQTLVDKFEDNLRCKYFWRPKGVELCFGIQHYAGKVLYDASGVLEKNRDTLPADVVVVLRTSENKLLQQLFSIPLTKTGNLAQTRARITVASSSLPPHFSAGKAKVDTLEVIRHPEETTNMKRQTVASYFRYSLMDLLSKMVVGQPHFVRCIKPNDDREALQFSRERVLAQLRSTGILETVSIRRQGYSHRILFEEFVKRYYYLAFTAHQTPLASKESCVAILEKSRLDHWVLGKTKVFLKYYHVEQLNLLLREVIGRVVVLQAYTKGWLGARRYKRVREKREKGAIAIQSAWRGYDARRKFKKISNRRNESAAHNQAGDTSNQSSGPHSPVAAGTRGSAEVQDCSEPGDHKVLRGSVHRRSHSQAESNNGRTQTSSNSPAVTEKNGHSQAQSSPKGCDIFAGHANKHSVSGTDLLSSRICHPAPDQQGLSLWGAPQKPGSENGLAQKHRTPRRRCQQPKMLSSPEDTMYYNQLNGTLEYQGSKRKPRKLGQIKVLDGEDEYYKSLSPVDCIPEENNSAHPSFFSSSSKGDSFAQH
UniProt Q9UF33, sequence (whole entry, looked up): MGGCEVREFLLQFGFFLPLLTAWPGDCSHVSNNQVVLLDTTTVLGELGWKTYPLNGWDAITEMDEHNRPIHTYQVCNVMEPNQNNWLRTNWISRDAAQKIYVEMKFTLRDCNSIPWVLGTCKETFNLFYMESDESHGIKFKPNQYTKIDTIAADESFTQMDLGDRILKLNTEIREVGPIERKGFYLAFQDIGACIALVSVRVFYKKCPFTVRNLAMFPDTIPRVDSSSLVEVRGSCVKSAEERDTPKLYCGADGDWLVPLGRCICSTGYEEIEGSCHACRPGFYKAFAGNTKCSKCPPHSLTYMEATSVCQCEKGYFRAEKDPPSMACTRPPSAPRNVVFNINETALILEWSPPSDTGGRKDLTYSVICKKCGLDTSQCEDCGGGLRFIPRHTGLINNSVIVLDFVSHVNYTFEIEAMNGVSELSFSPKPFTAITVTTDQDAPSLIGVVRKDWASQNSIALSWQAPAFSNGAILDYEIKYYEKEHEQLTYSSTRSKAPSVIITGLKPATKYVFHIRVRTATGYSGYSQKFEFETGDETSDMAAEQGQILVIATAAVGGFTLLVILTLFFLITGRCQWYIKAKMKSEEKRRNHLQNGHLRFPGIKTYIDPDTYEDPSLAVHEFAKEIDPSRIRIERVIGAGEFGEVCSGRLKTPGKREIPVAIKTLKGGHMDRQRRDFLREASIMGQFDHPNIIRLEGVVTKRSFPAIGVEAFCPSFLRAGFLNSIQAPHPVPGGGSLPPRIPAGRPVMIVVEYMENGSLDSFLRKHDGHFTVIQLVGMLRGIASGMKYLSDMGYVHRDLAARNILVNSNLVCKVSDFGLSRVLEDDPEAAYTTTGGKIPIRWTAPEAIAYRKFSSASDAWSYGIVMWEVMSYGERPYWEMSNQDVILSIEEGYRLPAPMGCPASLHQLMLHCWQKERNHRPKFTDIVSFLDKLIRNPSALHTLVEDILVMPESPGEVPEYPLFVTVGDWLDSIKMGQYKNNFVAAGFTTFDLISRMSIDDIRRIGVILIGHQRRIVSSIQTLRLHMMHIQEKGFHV
UniProt P41279, sequence (whole entry, looked up): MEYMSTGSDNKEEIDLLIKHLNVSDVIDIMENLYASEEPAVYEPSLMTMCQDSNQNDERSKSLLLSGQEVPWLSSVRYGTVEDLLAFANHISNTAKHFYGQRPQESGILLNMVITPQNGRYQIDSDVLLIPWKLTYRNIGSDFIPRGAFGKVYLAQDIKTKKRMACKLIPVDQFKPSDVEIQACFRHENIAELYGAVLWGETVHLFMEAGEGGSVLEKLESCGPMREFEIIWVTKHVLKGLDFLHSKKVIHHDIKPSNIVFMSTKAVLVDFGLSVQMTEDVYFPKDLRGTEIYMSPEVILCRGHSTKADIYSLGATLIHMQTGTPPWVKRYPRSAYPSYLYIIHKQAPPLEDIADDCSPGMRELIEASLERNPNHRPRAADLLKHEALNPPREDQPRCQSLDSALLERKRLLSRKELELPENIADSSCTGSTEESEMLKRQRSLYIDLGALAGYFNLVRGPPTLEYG

Study 1
Structure (SMILES): O=C1Nc2ccc(Cl)cc2C1=Cc1cc(Cl)c(O)c(Cl)c1
Read-out: cell-free assay
Tested at: 0.5 µM
target	remaining signal
EPHA6 (Homo sapiens, UniProt Q9UF33)	72.8%
MAP3K14 (Homo sapiens, UniProt Q99558)	111%
Myosin-IIIb (MYO3B, Homo sapiens, UniProt Q8WXR4)	17.4%
MAP3K8 (Homo sapiens, UniProt P41279)	93.1%

Study 2
Structure (SMILES): COc1cc(C(=O)N2CCC(N3CCN(C)CC3)CC2)ccc1Nc1ncc2c(n1)N(C)c1ccccc1C(=O)N2C
tested on	test	test system	setting	inhibition [%]
CaMKK1 (mouse)	probe labelling, KiNativ, measured: Lys1 site peptide	brain tissue lysate (mouse)	1 µM, together with: ATP acyl-phosphate probe	1
mouse PFTAIRE1	probe labelling, KiNativ ADP probe	mouse brain lysate	0.1 µM, LYS1 site LVALkVIR	-7.8
human PBMC	probe labeling, inhibitor, KiNativ profiling	cell lysate	concentration not given, domain 1, LYS2 site, together with: ATP acyl-phosphate probe 1 µM	-33.3
NDR2 (mouse)	probe labelling, KiNativ, measured: DTGHIYAMkILR peptide, LYS1 site	brain tissue lysate (mouse)	0.1 µM, together with: ATP acyl-phosphate probe	-1.2
mouse JNK1/JNK2/JNK3	probe labelling, KiNativ ATP probe	mouse brain lysate	0.1 µM, LYS2 site DLkPSNIVVK	3.3

Study 3
Target: 5-hydroxytryptamine receptor 1D (HTR1D, Homo sapiens, UniProt P28221)
UniProt P28221, sequence (whole entry, looked up): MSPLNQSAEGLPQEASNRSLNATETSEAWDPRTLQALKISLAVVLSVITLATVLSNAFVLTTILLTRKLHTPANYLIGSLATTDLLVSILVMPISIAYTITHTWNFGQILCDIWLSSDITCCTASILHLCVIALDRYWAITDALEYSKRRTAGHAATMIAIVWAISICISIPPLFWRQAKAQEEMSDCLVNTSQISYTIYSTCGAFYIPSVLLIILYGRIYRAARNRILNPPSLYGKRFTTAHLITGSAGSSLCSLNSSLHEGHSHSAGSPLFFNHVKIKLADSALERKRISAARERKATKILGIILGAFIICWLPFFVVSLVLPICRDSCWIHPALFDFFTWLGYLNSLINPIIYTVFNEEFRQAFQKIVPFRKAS
Read-out: ligand displacement
Technique: radioligand
Tested at: 10 µM
Compound	inhibition
CC(C)CC(=O)N1CCc2nc(-c3ccc(Br)cc3)nc(N(C)Cc3ccccc3)c2C1	22.6%
C[C@H](NC(=O)c1cnc2n1[C@](C)(Cc1ccc(C#N)cc1)C(=O)N2c1cc(Cl)c(F)c(Cl)c1)C(=O)NC1(c2ccccn2)CC1	12%
C[C@@H]1CN(c2cc(-c3nn(C)c4ccc(OC5(C)CC5)cc34)ncn2)C[C@H](C)O1	4.11%
O=C(NS(=O)(=O)c1ccc(NCC2CCOCC2)c([N+](=O)[O-])c1)c1ccc(N2CCN(Cc3ccc(C(F)(F)F)cc3-c3ccc(Cl)cc3)CC2)cc1Oc1cnc2[nH]ccc2c1	-6.27%
CCC(=N\O)/C(C)=C/c1ccc(F)cc1	13.9%
CN(C)C(=O)Cn1cc(-c2nc(C3(c4ccc(-c5cnc(N)nc5)cc4)CC3)no2)cn1	-3.06%
O=C(Nc1cccnn1)N1CC(CC=Cc2cncc(Oc3ccc(C(F)(F)F)cn3)n2)C1	-2.98%
O=C(NCc1ncc(C(F)(F)F)cc1Cl)c1ccc2c(c1)C1(CCS(=O)(=O)CC1)[C@@H](C1CC1)N2S(=O)(=O)c1ccc(F)cc1	-16.3%
Cc1cnc(-c2cc(Cl)ccc2F)cc1-n1c(=O)n(CC(N)=O)c2cnccc21	5.53%
CCS(=O)(=O)c1cc2cc(C[C@@](O)(CC(C)(C)c3ccc(F)cc3C(N)=O)C(F)(F)F)[nH]c2cn1	7.98%
CN([C@@H]1CCc2c(CC(=O)O)c3cc(S(C)(=O)=O)ccc3n2C1)S(=O)(=O)c1ccc(F)cc1	0.54%
CN([C@@H]1CCc2c(CC(=O)O)c3ccccc3n2C1)S(=O)(=O)c1ccc(F)cc1	-6.39%
CNCc1ccccc1-c1csc([C@H](C)Nc2nc(C)nc3cc(OC)c(OC)cc23)c1	98.9%
O=C1NC(c2ccccn2)Sc2ccccc21 (centres unmarked)	-4.84%
CCCCN(CCCC)C(=O)CN1C[C@H](c2cc(OC)c3c(c2)OCO3)[C@@H](C(=O)O)[C@@H]1CC(C)(C)CCC	-13.8%

Study 4
Organism: Sarcocystis neurona
Read-out: parasite activity
Tested at: 10 µM
Time: 96 h
Structure (SMILES)	activity class
CC(C)OC(=O)CCC/C=C\C[C@@H]1[C@@H](CC[C@@H](O)CCc2ccccc2)[C@H](O)C[C@@H]1O	inactive
CC(C)C[C@H](NC(=O)[C@@H](O)[C@H](N)Cc1ccccc1)C(=O)O	inactive
O=C(CCCN1CCC(O)(c2ccc(Cl)cc2)CC1)c1ccc(F)cc1	inactive
CN1CCN2c3ncccc3Cc3ccccc3C2C1 (centres unmarked)	inactive
OCc1cccnc1	inactive
Cc1[nH]cnc1CN1CCc2c(c3ccccc3n2C)C1=O	inactive
Cc1ccc(-c2cc(C(F)(F)F)nn2-c2ccc(S(N)(=O)=O)cc2)cc1	inactive
Cc1cccc(Nc2ccccc2C(=O)O)c1C	inactive

A few entries again (study 4):
Structure (SMILES)	activity class
CC(C)C[C@H](NC(=O)[C@@H](O)[C@H](N)Cc1ccccc1)C(=O)O	inactive
O=C(CCCN1CCC(O)(c2ccc(Cl)cc2)CC1)c1ccc(F)cc1	inactive
CN1CCN2c3ncccc3Cc3ccccc3C2C1 (centres unmarked)	inactive
OCc1cccnc1	inactive
Cc1[nH]cnc1CN1CCc2c(c3ccccc3n2C)C1=O	inactive
